Published values from different studies.
Lines come from different studies, so protocols differ. “And” joins repeats or separate records; there may be more than shown. ± marks the error that the study gave.
Astl: Astacin-like metalloendopeptidase (Astl, Mus musculus, UniProt Q6HA09)
Chain of UniProt P28482 (whole entry, looked up): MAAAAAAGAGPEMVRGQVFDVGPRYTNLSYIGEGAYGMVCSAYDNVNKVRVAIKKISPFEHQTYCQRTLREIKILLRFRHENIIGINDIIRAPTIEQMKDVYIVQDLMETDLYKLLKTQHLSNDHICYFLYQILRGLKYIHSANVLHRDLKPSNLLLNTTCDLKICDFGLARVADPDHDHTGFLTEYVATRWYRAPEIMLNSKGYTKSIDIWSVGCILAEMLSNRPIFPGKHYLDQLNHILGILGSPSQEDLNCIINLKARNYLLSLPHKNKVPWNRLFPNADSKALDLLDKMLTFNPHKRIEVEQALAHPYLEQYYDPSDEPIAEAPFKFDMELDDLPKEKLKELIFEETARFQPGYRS
Chain of UniProt Q6HA09 (whole entry, looked up): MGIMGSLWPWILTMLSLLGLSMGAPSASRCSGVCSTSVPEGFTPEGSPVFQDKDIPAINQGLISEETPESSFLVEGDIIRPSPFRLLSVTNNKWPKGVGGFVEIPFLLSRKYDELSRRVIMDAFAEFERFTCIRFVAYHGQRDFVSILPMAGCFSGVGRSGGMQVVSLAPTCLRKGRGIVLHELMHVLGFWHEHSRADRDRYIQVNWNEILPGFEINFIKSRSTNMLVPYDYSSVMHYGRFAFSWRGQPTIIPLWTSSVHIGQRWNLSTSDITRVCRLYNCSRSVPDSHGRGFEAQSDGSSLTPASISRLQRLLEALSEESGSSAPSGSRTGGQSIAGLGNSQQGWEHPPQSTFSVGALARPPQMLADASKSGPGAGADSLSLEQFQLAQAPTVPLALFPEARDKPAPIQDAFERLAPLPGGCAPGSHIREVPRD
Chain of UniProt Q6V1X1 (whole entry, looked up): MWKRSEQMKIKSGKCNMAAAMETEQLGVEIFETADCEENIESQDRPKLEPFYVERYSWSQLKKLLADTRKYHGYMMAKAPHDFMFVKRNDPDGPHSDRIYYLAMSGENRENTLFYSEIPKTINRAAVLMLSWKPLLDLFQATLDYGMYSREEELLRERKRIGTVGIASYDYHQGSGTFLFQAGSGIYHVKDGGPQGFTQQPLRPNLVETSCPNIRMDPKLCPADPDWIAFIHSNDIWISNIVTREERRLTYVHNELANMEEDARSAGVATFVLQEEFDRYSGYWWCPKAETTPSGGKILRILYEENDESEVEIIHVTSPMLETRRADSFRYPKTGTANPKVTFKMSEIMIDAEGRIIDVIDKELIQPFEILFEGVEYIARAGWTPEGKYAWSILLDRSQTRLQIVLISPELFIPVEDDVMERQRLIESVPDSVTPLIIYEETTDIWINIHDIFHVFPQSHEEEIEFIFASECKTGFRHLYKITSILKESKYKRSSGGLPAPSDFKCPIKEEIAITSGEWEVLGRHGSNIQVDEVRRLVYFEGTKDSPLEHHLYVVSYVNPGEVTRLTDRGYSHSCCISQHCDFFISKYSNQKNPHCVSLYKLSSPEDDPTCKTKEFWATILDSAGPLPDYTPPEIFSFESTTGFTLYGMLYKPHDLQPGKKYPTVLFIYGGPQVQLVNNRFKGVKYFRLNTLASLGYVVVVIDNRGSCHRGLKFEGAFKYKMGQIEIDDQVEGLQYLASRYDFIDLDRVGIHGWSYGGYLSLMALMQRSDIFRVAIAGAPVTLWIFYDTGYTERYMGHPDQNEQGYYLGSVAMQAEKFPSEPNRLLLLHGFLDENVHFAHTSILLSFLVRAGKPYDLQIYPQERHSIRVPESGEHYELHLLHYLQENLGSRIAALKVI
Chain of UniProt Q13315 (whole entry, looked up): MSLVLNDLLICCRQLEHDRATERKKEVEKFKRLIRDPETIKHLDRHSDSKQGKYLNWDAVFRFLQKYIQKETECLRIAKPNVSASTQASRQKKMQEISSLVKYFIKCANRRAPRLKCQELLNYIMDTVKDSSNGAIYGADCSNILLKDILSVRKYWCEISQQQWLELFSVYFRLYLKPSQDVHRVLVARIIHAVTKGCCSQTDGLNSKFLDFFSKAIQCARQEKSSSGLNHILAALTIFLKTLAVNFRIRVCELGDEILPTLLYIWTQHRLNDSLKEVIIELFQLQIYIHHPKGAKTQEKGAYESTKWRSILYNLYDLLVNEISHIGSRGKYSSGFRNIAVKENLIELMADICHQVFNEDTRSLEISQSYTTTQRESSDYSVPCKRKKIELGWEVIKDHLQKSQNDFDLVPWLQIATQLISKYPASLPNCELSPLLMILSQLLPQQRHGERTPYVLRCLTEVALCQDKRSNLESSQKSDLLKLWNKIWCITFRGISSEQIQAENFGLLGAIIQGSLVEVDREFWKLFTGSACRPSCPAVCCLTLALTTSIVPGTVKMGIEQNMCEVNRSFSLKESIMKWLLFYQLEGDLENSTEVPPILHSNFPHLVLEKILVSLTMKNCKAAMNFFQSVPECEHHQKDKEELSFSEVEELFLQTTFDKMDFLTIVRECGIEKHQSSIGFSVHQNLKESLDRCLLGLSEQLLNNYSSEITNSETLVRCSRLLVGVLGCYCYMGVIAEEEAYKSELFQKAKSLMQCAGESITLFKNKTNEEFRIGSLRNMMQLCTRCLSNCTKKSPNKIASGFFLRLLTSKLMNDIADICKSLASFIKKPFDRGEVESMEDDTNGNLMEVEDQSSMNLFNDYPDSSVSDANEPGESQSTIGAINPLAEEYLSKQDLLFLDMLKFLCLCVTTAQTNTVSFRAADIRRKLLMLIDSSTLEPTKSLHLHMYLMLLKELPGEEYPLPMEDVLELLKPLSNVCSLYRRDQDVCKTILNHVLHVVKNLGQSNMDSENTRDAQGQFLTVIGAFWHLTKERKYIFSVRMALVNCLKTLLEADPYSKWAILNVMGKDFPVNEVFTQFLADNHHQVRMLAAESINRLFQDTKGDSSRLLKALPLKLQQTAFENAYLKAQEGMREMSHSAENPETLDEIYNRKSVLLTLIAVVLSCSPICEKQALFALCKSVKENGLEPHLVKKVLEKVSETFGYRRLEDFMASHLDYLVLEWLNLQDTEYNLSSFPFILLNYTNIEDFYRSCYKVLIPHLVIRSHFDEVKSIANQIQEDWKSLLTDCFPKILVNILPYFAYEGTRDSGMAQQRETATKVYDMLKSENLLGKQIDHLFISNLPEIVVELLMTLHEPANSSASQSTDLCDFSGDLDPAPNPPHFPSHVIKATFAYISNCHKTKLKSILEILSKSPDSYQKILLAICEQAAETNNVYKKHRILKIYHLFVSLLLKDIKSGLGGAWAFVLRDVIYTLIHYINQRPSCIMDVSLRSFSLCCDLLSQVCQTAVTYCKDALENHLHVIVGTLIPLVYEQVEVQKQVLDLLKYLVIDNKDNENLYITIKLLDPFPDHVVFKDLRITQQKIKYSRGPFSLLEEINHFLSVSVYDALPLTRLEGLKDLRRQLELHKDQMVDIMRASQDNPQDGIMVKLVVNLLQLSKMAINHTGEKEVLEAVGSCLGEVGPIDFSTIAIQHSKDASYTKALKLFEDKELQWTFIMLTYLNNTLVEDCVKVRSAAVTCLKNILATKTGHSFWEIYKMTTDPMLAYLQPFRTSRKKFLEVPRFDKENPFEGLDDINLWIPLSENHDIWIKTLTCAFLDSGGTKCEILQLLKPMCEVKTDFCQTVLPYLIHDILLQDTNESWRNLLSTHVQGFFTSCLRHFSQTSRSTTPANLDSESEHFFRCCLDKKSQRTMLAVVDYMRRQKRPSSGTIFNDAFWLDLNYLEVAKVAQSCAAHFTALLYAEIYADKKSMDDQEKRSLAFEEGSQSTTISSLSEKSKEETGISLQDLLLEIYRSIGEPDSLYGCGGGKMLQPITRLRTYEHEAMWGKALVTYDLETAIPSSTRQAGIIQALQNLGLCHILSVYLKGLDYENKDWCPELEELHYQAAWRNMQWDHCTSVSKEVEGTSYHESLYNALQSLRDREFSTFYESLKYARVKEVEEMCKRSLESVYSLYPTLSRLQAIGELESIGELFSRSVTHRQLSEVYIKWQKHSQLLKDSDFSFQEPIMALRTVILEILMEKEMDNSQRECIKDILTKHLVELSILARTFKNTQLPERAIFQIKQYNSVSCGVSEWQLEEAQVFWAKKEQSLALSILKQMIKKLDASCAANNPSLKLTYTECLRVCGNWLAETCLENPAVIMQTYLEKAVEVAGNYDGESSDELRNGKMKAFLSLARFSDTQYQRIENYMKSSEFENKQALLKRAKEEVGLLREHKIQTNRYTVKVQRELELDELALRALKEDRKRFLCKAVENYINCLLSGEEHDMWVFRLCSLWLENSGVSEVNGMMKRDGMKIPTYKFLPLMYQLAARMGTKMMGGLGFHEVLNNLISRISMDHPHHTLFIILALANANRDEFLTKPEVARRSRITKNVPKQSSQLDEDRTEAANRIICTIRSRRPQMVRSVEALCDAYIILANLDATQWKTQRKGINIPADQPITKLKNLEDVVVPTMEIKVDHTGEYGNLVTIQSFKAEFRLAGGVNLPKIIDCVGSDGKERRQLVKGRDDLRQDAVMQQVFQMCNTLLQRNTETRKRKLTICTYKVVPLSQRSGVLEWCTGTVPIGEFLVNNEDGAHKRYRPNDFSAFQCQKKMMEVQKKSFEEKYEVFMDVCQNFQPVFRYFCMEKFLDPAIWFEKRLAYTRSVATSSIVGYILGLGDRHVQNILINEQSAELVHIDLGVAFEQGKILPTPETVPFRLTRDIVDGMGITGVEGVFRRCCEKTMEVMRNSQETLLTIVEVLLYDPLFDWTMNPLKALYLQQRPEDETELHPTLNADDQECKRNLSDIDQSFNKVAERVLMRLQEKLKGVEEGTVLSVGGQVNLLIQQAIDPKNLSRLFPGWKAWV

SMILES	tested on	assay	test system	setting	how to read	quantity	result
N#Cc1cnc2sc(C(=O)O)cc2c1N1CCc2[nH]nc(C(=O)N[C@@H](CC(=O)NCCOCCN3CCOCC3)c3cccc(Br)c3)c2C1	Interleukin-1 receptor type 1 (IL1R1, Homo sapiens, UniProt P14778)	SEAP reporter gene, antagonist	HEK-Blue IL-36R cells	33.33 µM, 6 h, with: IL-1β 5 ng/mL	reference: untreated	remaining activity	102%
CN(Cc1cc(C2CC2)on1)C(=O)c1cccc(-c2ccc3c(c2)CCO3)c1	acetoacetyl-CoA synthetase (Cryptococcus neoformans)	enzyme activity, inhibitor	–	62.5 µM	–	remaining activity	100%
O=C(CCN(Cc1cccnc1)Cc1ccc(Cl)c(O)c1F)NO	Astl	enzyme activity, inhibitor, fluorogenic	–	5 µM	–	remaining activity	51 ± 5%
CCC1(CC)C(=O)N(c2cccc(CN3CCc4cc5c(cc4C3)OCO5)c2)C1=O	Dipeptidyl peptidase 8 (Homo sapiens, UniProt Q6V1X1)	enzyme activity, inhibitor	–	5 µM	–	remaining activity	12%
COC1CN([C@H]2CC[C@H]([C@@]3(C)Oc4c(Cl)cc(C(=O)NCc5c(SC)cc(C)[nH]c5=O)c(C)c4O3)CC2)C1	–	RNA-seq, item: SLC41A2	human, whole blood	dose not given, 24 h	reference: pretreatment baseline	log2 fold change	1.41
CC(C)[C@@H]1NC(=O)[C@H](Cc2ccccc2)NC(=O)CSC[C@@H](C(N)=O)NC(=O)[C@H](CCC(=O)O)NC(=O)[C@H](CO)NC(=O)[C@H](Cc2c[nH]c3cccc(Cl)c23)NC(=O)[C@H](C2CCCCC2)NC(=O)[C@H](C(C)C)NC(=O)[C@H](Cc2ccc(O)cc2)NC(=O)[C@H](CC(=O)O)NC(=O)[C@H](Cc2c[nH]c3ccccc23)NC(=O)[C@H](Cc2ccc(N)nc2)NC(=O)[C@H](Cc2c[nH]c3ccc(Cl)cc23)NC(=O)[C@H](CCC(=O)O)NC1=O	Interleukin-1 receptor-like 2 (IL1RL2, Homo sapiens, UniProt Q9HB29)	reporter gene (SEAP), inhibitor, HEK-Blue IL-36R reporter	HEK-Blue IL-36R cells	100 µM, 6 h, with: IL-36β 0.3 ng/mL	–	remaining activity	4.2%
Cc1cc(NC(=O)c2cccc(NC(=O)/C(C#N)=C/C(C)(C)C)c2)ccc1Nc1nccc(-c2cccnc2)n1	Mitogen-activated protein kinase 8, phosphorylated (MAPK8, Homo sapiens, UniProt P45983)	enzyme activity after dialysis, inhibitor	–	10 µM, 5 days, unit not given	reference: no inhibitor	remaining activity	1.1
COc1ccccc1-c1ccncc1C(=O)Nc1nnc(OCc2ccc(Cl)cc2)s1	Bifunctional 3'-5' exonuclease/ATP-dependent helicase WRN, residues 500-946 (WRN, Homo sapiens, UniProt Q14191)	ATPase activity, ADP-Glo	–	0.48 µM	reference: 0 µM cpd	remaining activity	107%
N#Cc1ccc(CN(CCC(=O)NO)Cc2ccc(C#N)cc2)cc1	Astl	enzyme activity, inhibitor, fluorogenic	–	0.25 µM	–	remaining activity	88 ± 4%
O=c1c(-c2ccc(Cl)c(CN3CCOCC3)c2)coc2cc(O)ccc12	Serine-protein kinase ATM (ATM, Homo sapiens, UniProt Q13315)	enzyme activity, inhibitor	–	1 µM	–	remaining activity	83%
COc1ccc(NC(=O)c2c(Nc3ccccc3)sc(C(=O)N/N=C/c3ccc(OC)c(OC)c3)c2NC(C)=O)cc1	Vascular endothelial growth factor receptor 2 (KDR, Homo sapiens, UniProt P35968)	enzyme activity, inhibitor	–	1 µM	–	remaining activity	65.3%
COc1c(Cl)ccc(CN(CCC(=O)NO)Cc2ccc(Cl)c(OC)c2F)c1F	Astl	enzyme activity, inhibitor, fluorogenic	–	5 µM	–	remaining activity	10 ± 4%
COC(=O)[C@@]1(C)C=C(C(=O)Nc2cccc(C(=O)Nc3ccc(Nc4nccc(-c5cccnc5)n4)c(C)c3)c2)C(=O)CC1	Mitogen-activated protein kinase 1 (MAPK1, Homo sapiens, UniProt P28482)	enzyme activity, inhibitor	–	0.06097 µM, unit not given	reference: vehicle	remaining activity	0.932 and 0.941 and 0.967
O=C(CCN(Cc1ccc(Cl)cc1F)Cc1ccc(Cl)cc1F)NO	Astl	enzyme activity, inhibitor, fluorogenic	–	0.25 µM	–	remaining activity	78 ± 6%
COC(=O)c1cc2cc3c(cc2oc1=O)N(CC(=O)NC(Cc1ccc(C)cc1)C(=O)NCC=CS(=O)(=O)c1ccccc1)CCC3 (centres unmarked)	Rhodesain (rhodesain, Trypanosoma brucei rhodesiense, UniProt Q95PM0)	enzyme activity, inhibitor, fluorescence	–	5 µM	–	remaining activity	60%
O=C(CN(Cc1ccccc1)Cc1cccc(C(=O)O)c1)NO	Astl	enzyme activity, inhibitor, fluorogenic	–	0.25 µM	–	remaining activity	96 ± 8%
C[C@](C(=O)NC1CCOCC1)(c1cncnc1)N(C(=O)[C@H](F)Cl)c1ccc(OC(F)(F)Cl)cc1	Transmembrane protease serine 2 (TMPRSS2, Homo sapiens, UniProt O15393)	enzyme activity, inhibitor	–	10 µM	–	remaining activity	101%
